Results collected from several papers.
Numbered parts are unrelated; each lists some results of a single study.

Set 1 — cell line: HEK-293T/ACE2; tested at: 10 µM; time: 16 h; baseline: vehicle
| SMILES | viability [%] |
| --- | --- |
| Cc1ncc(CO)c(CO)c1O | 101 |
| CC(C)N1CCN(c2ccc(OCC3COC(Cn4cncn4)(c4ccc(Cl)cc4Cl)O3)cc2)CC1 (centres unmarked) | 97.8 |
| CCC1(C)CC(=O)NC1=O (centres unmarked) | 98.8 |
| C[C@]12CC[C@H]3[C@@H](CCC4=CC(=O)CC[C@@]43C)[C@@H]1CC[C@@H]2O | 101 |

Set 2 — read-out: enzyme activity; mode: inhibitor; tested at: 20 µM; setting: hit confirmation
Target: Replicase polyprotein 1ab, main protease (rep, Severe acute respiratory syndrome coronavirus 2, UniProt P0DTD1)
| Compound | inhibition [%] |
| --- | --- |
| O=C(/C=C/c1ccc2ccccc2n1)c1ccncc1 | 95 |
| O=c1c(O)c(-c2ccc(O)cc2O)oc2cc(O)cc(O)c12 | 32.7 |
| Oc1cc(CNC(=S)/C=C/c2cc(O)c(O)c(Br)c2)cc(O)c1O | 78.1 |
| O=C(NC1CCCCC1)N(CCCl)[N+][O-] | 52.5 |

Set 3 — mode: inhibitor; tested at: 20 µM
Target: Replicase polyprotein 1ab, nsp13 helicase (rep, Severe acute respiratory syndrome coronavirus 2, UniProt P0DTD1)
| SMILES | inhibition [%] |
| --- | --- |
| Oc1cc2c(cc1O)CN(C(=S)NCCc1ccc(Cl)cc1)CCC2 | 0.92 |
| CCCCC1CCC(c2nc(-c3ccncc3)no2)CC1 (centres unmarked) | 0.42 |
| CS(=O)(=O)c1ccc(C2=C(c3ccccc3)C(=O)OC2)cc1 | 1.16 |
| CC#CC(=O)N1CCC[C@H]1c1nc(-c2ccc(C(=O)Nc3ccccn3)cc2)c2c(N)nccn12 | 2.5 |
| Cc1cnc(NC(=O)Nc2cc(Br)c(C)cc2OC[C@@H]2CNCCO2)cn1 | -0.27 |
| C[C@]12CC[C@H]3[C@@H](CCC4=CC(=O)CC[C@@]43C)[C@@H]1CC[C@@H]2O | 2.75 |
| CC(=O)OCC1=C(C(=O)O)N2C(=O)[C@@H](NC(=O)Cc3cccs3)[C@H]2SC1 | 8.15 |
| C=CC(=O)Nc1cccc(Nc2nc(Nc3ccc(N4CCN(C(C)=O)CC4)cc3OC)ncc2C(F)(F)F)c1 | 10.3 |
| CN(C)CCN(Cc1ccccc1)c1ccccn1 | 3.51 |
| Oc1cccc(O)c1 | -2.22 |
| C[N@+]1(CC2CC2)CC[C@]23c4c5ccc(O)c4O[C@H]2C(=O)CC[C@@]3(O)[C@H]1C5 | 3.09 |
| FC(F)OC(F)(F)C(F)Cl (centres unmarked) | 3.24 |
| Oc1c(I)cc(Cl)c2cccnc12 | 6.91 |
| O=C(c1cccc(Cl)c1F)N1CCN(Cc2cccc(Nc3nccs3)n2)CC1 | 1.68 |
| C=CCSCC1Nc2cc(Cl)c(S(N)(=O)=O)cc2S(=O)(=O)N1 (centres unmarked) | 0.81 |
| C[C@@H](O)[C@H]1C(=O)N2C(C(=O)O)=C([C@H]3CCCO3)S[C@H]12 | 0.63 |

Mixed results
rep main protease: Replicase polyprotein 1ab, main protease (rep, Severe acute respiratory syndrome coronavirus 2, UniProt P0DTD1)
| Substance | target or system | test | system | conditions | how to read | quantity | result |
| --- | --- | --- | --- | --- | --- | --- | --- |
| FLPGVYSV | – | AIM | peptide, CD8+ T cells from PBMC, human donors | HLA-A*02:01 restricted, unit not given | baseline: positive over tested donors | frequency of responding donors | 100 |
| CC[C@H](C)[C@H](NC(=O)[C@H](CC(C)C)NC(=O)[C@H](Cc1c[nH]c2ccccc12)NC(=O)[C@H](CCC(N)=O)NC(=O)[C@@H](NC(=O)[C@H](Cc1ccccc1)NC(=O)[C@H](C)NC(=O)[C@H](CCCCNC(=O)COCCOCCNC(=O)COCCOCCNC(=O)CC[C@H](NC(=O)CCCCCCCCCCCCCCCCCCC(=O)O)C(=O)O)NC(=O)[C@H](CCC(N)=O)NC(=O)[C@H](C)NC(=O)[C@@H](NC(=O)[C@H](CCCCN)NC(=O)[C@H](CC(=O)O)NC(=O)[C@H](CC(C)C)NC(=O)C(C)(C)NC(=O)[C@@H](NC(=O)[C@H](CO)NC(=O)[C@H](Cc1ccc(O)cc1)NC(=O)[C@H](CC(=O)O)NC(=O)[C@H](CO)NC(=O)[C@@H](NC(=O)[C@H](Cc1ccccc1)NC(=O)[C@@H](NC(=O)CNC(=O)[C@H](CCC(=O)O)NC(=O)C(C)(C)NC(=O)[C@@H](N)Cc1ccc(O)cc1)[C@@H](C)O)[C@@H](C)O)[C@@H](C)CC)[C@@H](C)CC)C(C)C)C(=O)N[C@@H](C)C(=O)NCC(=O)NCC(=O)N1CCC[C@H]1C(=O)N[C@@H](CO)C(=O)N[C@@H](CO)C(=O)NCC(=O)N[C@@H](C)C(=O)N1CCC[C@H]1C(=O)N1CCC[C@H]1C(=O)N1CCC[C@H]1C(=O)N[C@@H](CO)C(N)=O | – | – | healthy human | 5.0 mg, single ascending dose | – | acute pancreatitis | 0% |
| SNFRVQPTESIVRFP | human CD4 T cells | AIM | peptide | – | – | responding donors | 9% |
| CC(C)(C)NCc1ccc(Nc2ccnc3cc(Cl)ccc23)cc1O | SARS-CoV-2 | cytopathic effect | USA_WA1/2020 | round 2, 5-point | – | maximum response | 75.5% |
| O=C(O)c1ccc(Cl)cc1O | rep main protease | reporter gene (mKate2), inhibitor | – | 20 µM | – | inhibition | -0.662% |
| CCN(CC)CCCNC(=O)c1ccc(-c2nc(CN3CCc4ccccc43)c(C)o2)cc1 | SARS-CoV-2 | cytopathic effect | USA_WA1/2020 | round 2, 5-point | – | maximum response | 116% |
| CC(C)(CC(=O)N1CCCC1)NCC(=O)N1C[C@@H](F)C[C@H]1C#N | rep main protease | reporter gene (Gaussia luciferase), inhibitor | – | 20 µM | – | inhibition | 0.0227% |
| O=c1ccn([C@@H]2O[C@](F)(CO)[C@@H](O)[C@H]2O)c(=O)[nH]1 | Mammarenavirus machupoense | viral replication | – | – | – | EC50 | 0.12 to 0.28 µM |

For quick reference, copied from above (set 3):
| SMILES | inhibition [%] |
| --- | --- |
| CC(=O)OCC1=C(C(=O)O)N2C(=O)[C@@H](NC(=O)Cc3cccs3)[C@H]2SC1 | 8.15 |
| C=CC(=O)Nc1cccc(Nc2nc(Nc3ccc(N4CCN(C(C)=O)CC4)cc3OC)ncc2C(F)(F)F)c1 | 10.3 |
| CN(C)CCN(Cc1ccccc1)c1ccccn1 | 3.51 |
| Oc1cccc(O)c1 | -2.22 |
